# Experimental data gathered from unrelated publications.
# Lines come from different studies, so protocols differ.
# Organism: Pseudomonas aeruginosa
SMILES,technique,strain,matrix,time,temperature,MIC
CC[C@H](C)[C@H](NC(=O)[C@H](CCCNC(=N)N)NC(=O)[C@@H]1CCCN1C(=O)[C@H](CCCNC(=N)N)NC(=O)[C@H](Cc1ccccc1)NC(=O)[C@H](Cc1c[nH]cn1)NC(=O)[C@H](CCCNC(=N)N)NC(=O)[C@H](CC(C)C)NC(=O)[C@H](CCCCN)NC(=O)CNC(=O)[C@H](CC(C)C)NC(=O)[C@H](Cc1ccccc1)NC(=O)[C@H](CCCNC(=N)N)NC(=O)CNC(=O)[C@H](Cc1ccccc1)NC(=O)[C@H](CCCNC(=N)N)NC(=O)CNC(=O)[C@H](CCCNC(=N)N)NC(=O)[C@H](CCC(N)=O)NC(=O)[C@@H](NC(=O)[C@@H](N)CC(C)C)[C@@H](C)CC)C(=O)N[C@@H](CCCCN)C(=O)N[C@@H](Cc1ccccc1)C(=O)N[C@@H](CCCCN)C(=O)NCC(=O)N[C@@H](CCCCN)C(=O)N[C@@H](C)C(=O)NCC(=O)N[C@@H](Cc1c[nH]c2ccccc12)C(=O)N[C@H](C(=O)N[C@H](C(=O)NCC(=O)O)C(C)C)[C@@H](C)O,broth microdilution,ATCC 27853,,16 to 20 h,37 °C,> 25 µM
CC[C@H](C)[C@@H]1NC(=O)[C@H](CC(C)C)NC(=O)[C@@H](NC(=O)[C@H](CO)NC(=O)[C@H](CCCNC(=N)N)NC(=O)[C@@H](N)CO)CSSC[C@@H](C(=O)N[C@@H](CCC(N)=O)C(=O)N[C@@H](CCCNC(=N)N)C(=O)N[C@@H](CC(C)C)C(=O)N[C@@H](Cc2ccccc2)C(N)=O)NC(=O)[C@H](C(C)C)NC(=O)[C@H]([C@@H](C)CC)NC(=O)[C@H](CC(C)C)NC(=O)[C@@H](NC(=O)[C@H](CO)NC(=O)[C@H](CCCNC(=N)N)NC(=O)[C@@H](N)CO)CSSC[C@@H](C(=O)N[C@@H](CCC(N)=O)C(=O)N[C@@H](CCCNC(=N)N)C(=O)N[C@@H](CC(C)C)C(=O)N[C@@H](Cc2ccccc2)C(N)=O)NC(=O)[C@H](C(C)C)NC1=O,broth microdilution,ATCC 27853,,,,> 100 µg/mL
CC(C)C[C@H](NC(=O)[C@@H]1CSCC(=O)N[C@H]2CCCCNC(=O)CSC[C@H](NC(=O)[C@H](CCCCN)NC2=O)C(=O)N[C@@H](CCCCN)C(=O)N[C@@H](CC(C)C)C(=O)N1)C(N)=O,,PAO1,,18 h,,> 256 µg/mL
CC(C)C[C@H](NC(=O)CN)C(=O)N[C@@H](CC(C)C)C(=O)N[C@@H](CCCCN)C(=O)N[C@@H](CC(C)C)C(=O)N[C@@H](CC(C)C)C(=O)N[C@@H](CCCCN)C(=O)N[C@@H](CCCCN)C(=O)N[C@@H](CC(C)C)C(=O)N[C@@H](CC(C)C)C(=O)N[C@@H](CCCCN)C(=O)N[C@@H](CC(C)C)C(=O)N[C@@H](CC(C)C)C(=O)N[C@@H](CCCCN)C(N)=O,,ATCC 19606,CAMHB,18 h,37 °C,> 19 µM
CCCCCCCCC/C=C\CCCc1cc(=O)c2ccccc2n1C,broth microdilution,,Luria-Bertani broth,,,> 256 µg/mL
CC(C)[C@H](NC(=O)[C@H](CCCNC(=N)N)NC(=O)[C@H](CCCNC(=N)N)NC(=O)[C@@H](NC(=O)[C@H](C)NC(=O)[C@H](CC(N)=O)NC(=O)[C@H](CCCNC(=N)N)NC(=O)[C@@H](NC(=O)[C@H](CCCNC(=N)N)NC(=O)[C@H](CCCNC(=N)N)NC(=O)[C@@H](NC(=O)[C@@H](NC(=O)[C@H](CCCNC(=N)N)NC(=O)[C@H](CCCNC(=N)N)NC(=O)[C@H](Cc1c[nH]c2ccccc12)NC(=O)[C@H](Cc1c[nH]c2ccccc12)NC(=O)CN)[C@@H](C)O)C(C)C)C(C)C)C(C)C)C(=O)O,,clinical strain 110,,18 h,37 °C,16 µg/mL
CC(C)C[C@H](NC(=O)[C@@H]1CSCC(=O)N[C@@H](CCCCN)C(=O)N[C@@H](CC(C)C)C(=O)N[C@@H](CC(C)C)C(=O)NCCCC[C@@H]2NC(=O)[C@H](CC(C)C)NC(=O)[C@H](CC(C)C)NC(=O)[C@H](CCCCN)NC(=O)CSC[C@H](NC(=O)[C@H](CC(C)C)NC(=O)[C@H](CC(C)C)NC(=O)[C@H](CCCCN)NC2=O)C(=O)N[C@@H](CCCCN)C(=O)N[C@@H](CCCCN)C(=O)N[C@@H](CCCCN)C(=O)N1)C(N)=O,,PAO1,,18 h,,256 µg/mL
CC[C@@H](C)[C@@H](NC(=O)[C@@H](C)NC(=O)[C@H](NC(=O)[C@@H](CC(=O)O)NC(=O)[C@@H](CCCCN)NC(=O)[C@@H](CO)NC(=O)[C@H](NC(=O)[C@@H](CC(N)=O)NC(=O)[C@@H](C)NC(=O)[C@H](NC(=O)[C@@H](CCC(=O)O)NC(=O)[C@@H](CCCCN)NC(=O)[C@H](NC(=O)[C@H](NC(=O)[C@@H](Cc1c[nH]cn1)NC(=O)[C@@H](CCCCN)NC(=O)[C@H](NC(=O)[C@@H](CCCCN)NC(=O)[C@@H](CCCCN)NC(=O)[C@H](NC(=O)[C@@H](CC(C)C)NC(=O)[C@@H](CCCCN)NC(=O)[C@@H](CC(N)=O)NC(=O)[C@@H](Cc1ccccc1)NC(=O)[C@@H](CCCNC(=N)N)NC(=O)[C@@H](CCCCN)NC(=O)[C@@H](CCCNC(=N)N)NC(=O)[C@@H](Cc1ccccc1)NC(=O)CN)C(C)C)C(C)C)[C@H](C)O)[C@H](C)CC)[C@H](C)O)C(C)C)C(C)C)C(=O)N[C@@H](C(=O)N[C@H](C)C(=O)NCC(=O)N[C@H](CO)C(=O)NCC(=O)N[C@@H](C(=O)N[C@H](C)C(=O)N[C@@H](C(=O)NCC(=O)N[C@H](C)C(=O)N[C@H](C)C(=O)N[C@H](CCSC)C(N)=O)C(C)C)C(C)C)C(C)C,,isolate RKI 93/12,CAMHB,,,32 µg/mL
CC[C@H](C)[C@H](NC(=O)[C@H](CCCCN)NC(=O)[C@H](CCC(=O)O)NC(=O)[C@H](CCCCN)NC(=O)[C@H](CO)NC(=O)[C@H](CCCCN)NC(=O)[C@H](CCCNC(=N)N)NC(=O)[C@H](Cc1ccccc1)NC(=O)[C@H](Cc1ccccc1)NC(=O)[C@H](CC(=O)O)NC(=O)CNC(=O)[C@H](CC(C)C)NC(=O)[C@@H](N)CC(C)C)C(=O)NCC(=O)N[C@@H](CCCCN)C(=O)N[C@@H](CCC(=O)O)C(=O)N[C@@H](Cc1ccccc1)C(=O)N[C@@H](CCCCN)C(=O)N[C@@H](CCCNC(=N)N)C(=O)N[C@H](C(=O)N[C@H](C(=O)N[C@@H](CCC(N)=O)C(=O)N[C@@H](CCCNC(=N)N)C(=O)N[C@H](C(=O)N[C@@H](CCCCN)C(=O)N[C@@H](CC(=O)O)C(=O)N[C@@H](Cc1ccccc1)C(=O)N[C@@H](CC(C)C)C(=O)N[C@@H](CCCNC(=N)N)C(=O)N[C@@H](CC(N)=O)C(=O)N[C@@H](CC(C)C)C(=O)N[C@H](C(=O)N1CCC[C@H]1C(=O)N[C@@H](CCCNC(=N)N)C(=O)N[C@H](C(=O)N[C@@H](CCC(=O)O)C(=O)N[C@@H](CO)C(=O)O)[C@@H](C)O)C(C)C)[C@@H](C)CC)C(C)C)[C@@H](C)CC,,PAO1 mla transposon insertion mutants,RPMI with 5% LB,,,8 µM

# For quick reference, copied from above:
SMILES,technique,strain,matrix,time,temperature,MIC
CCCCCCCCC/C=C\CCCc1cc(=O)c2ccccc2n1C,broth microdilution,,Luria-Bertani broth,,,> 256 µg/mL
